Assay results of several laboratories.
Compare with care: the assays were run in different laboratories. “And” joins repeats or separate records; there may be more than shown. ± gives the spread as reported.

Structure (SMILES)	tested on	test	test system	conditions	how to read	quantity	value
CC[n+]1cccc2cc(/C=N/NC(=O)c3cccc(C(=O)N/N=C/c4ccc5c(ccc[n+]5CC)c4)c3)ccc21	22CTA telomeric G4-DNA antiparallel	FRET melting	–	1 µM, K10 buffer, DNA 0.2 µM, together with: ds26 10 µM	–	ΔTm	5.8 ± 0.3 °C
O=C(NCCO)c1ccc([C@H]2[C@@H](F)[C@@H](F)C[C@@H](F)[C@H]2F)cc1	–	hepatocyte stability	cryopreserved rat hepatocytes	1 µM	–	hepatic clearance	10 mL/min/kg
O=c1c(-c2cnn(-c3ccc(Cl)cc3)c2)c(C(F)(F)F)oc2c(O)c(O)ccc12	ROC1-CUL1 E3 subcomplex	Cdc34-ubiquitin discharge	–	75 µM	baseline: input	Cdc34b-ubiquitin remaining	4.5%
C=CC(=O)N1Cc2nc(-c3cc(-c4cc(Cl)cnc4Cl)c(F)cc3F)n(-c3ccncn3)c2C1	ERK (human)	ERK phosphorylation, inhibitor, HTRF	–	2 h	–	IC50	32 nM
OC[C@H]1O[C@@H]2O[C@H]3[C@H](O)[C@@H](O)[C@@H](O[C@H]4[C@H](O)[C@@H](O)[C@@H](O[C@H]5[C@H](O)[C@@H](O)[C@@H](O[C@H]6[C@H](O)[C@@H](O)[C@@H](O[C@H]7[C@H](O)[C@@H](O)[C@@H](O[C@H]1[C@H](O)[C@H]2O)O[C@@H]7CO)O[C@@H]6CO)O[C@@H]5CO)O[C@@H]4CO)O[C@@H]3CO	LuxR	Escherichia coli sensor	–	10 µM	higher = stronger induction	bioluminescence induction	771 ± 69 RLU
CC(C)Oc1cc(Cl)ccc1CNc1cc(-c2ccccc2)nc2ncnn12	endogenous β-adrenergic receptors	cAMP level, cAMP GloSensor	mock-transfected cells	100 nM, together with: isoprenaline 30 nM	higher = more cAMP	cAMP luminescence	29800 a.u. and 23600 a.u. and 23000 a.u.
Cn1ccc2cc(-n3c(=O)[nH]c4sc5c(c4c3=O)CCCC5)ccc21	rat P2X receptor	radioligand binding	–	10 µM	–	inhibition	7%
Cc1[nH]nc2c1N=C(c1ccccc1Cl)c1cnc(N3CCOCC3)cc1N2	thyroid hormone receptor, rat	radioligand binding	–	10 µM	–	inhibition	-2%
Cc1cn(CC(=O)N(CC(=O)N[C@H]2CCC[C@@H]2N(CC(=O)N[C@H]2COC[C@@H]2N(CC(=O)N[C@H]2COC[C@@H]2N(CC(=O)N[C@H]2COC[C@@H]2N(CC(=O)NCCOCCOCC(N)=O)C(=O)Cn2cnc3c(N)ncnc32)C(=O)Cn2cc(C)c(=O)[nH]c2=O)C(=O)Cn2cnc3c(N)ncnc32)C(=O)Cn2cnc3c(=O)[nH]c(N)nc32)[C@H]2CCC[C@@H]2NC(=O)CN(C(=O)Cn2cnc3c(=O)[nH]c(N)nc32)[C@H]2CCC[C@@H]2NC(=O)CN(C(=O)Cn2cc(C)c(=O)[nH]c2=O)[C@H]2COC[C@@H]2NC(=O)CN(C(=O)Cn2cnc3c(N)ncnc32)[C@H]2COC[C@@H]2NC(=O)CN(C(=O)Cn2cnc3c(=O)[nH]c(N)nc32)[C@H]2COC[C@@H]2N)c(=O)[nH]c1=O	mismatched RNA TU	duplex formation, UV melting	–	–	baseline: complementary RNA	ΔTm	-19.7 °C
C[n+]1ccc(/C=N/NC(=O)c2cc(C(=O)N/N=C/c3cc[n+](C)cc3)ncn2)cc1	22CTA telomeric G4-DNA antiparallel	FRET melting	–	1 µM, K10 buffer, DNA 0.2 µM	–	ΔTm	2.1 ± 1.5 °C
C=CC(=O)Nc1cccc(Cn2ncc3cnc(Nc4cnn(CCOC)c4)nc32)c1	SYK human	binding, KINOMEscan	–	100 nM	lower = stronger binding	percent of control	100%
C[n+]1cccc2cc(/C=N/NC(=O)c3cccc(C(=O)N/N=C/c4ccc5c(ccc[n+]5C)c4)c3)ccc21	22CTA telomeric G4-DNA antiparallel	FRET melting	–	1 µM, K10 buffer, DNA 0.2 µM, together with: ds26 10 µM	–	ΔTm	5.2 ± 0.3 °C
O=c1c(Oc2ccccc2)c(C(F)(F)F)oc2c(O)c(O)ccc12	ROC1-CUL1 E3 subcomplex	di-ubiquitin synthesis	–	30 µM	baseline: input	di-ubiquitin formed	47%
C=CC(=O)N1[C@@H](c2ccc3c(c2)OCO3)c2[nH]c3ccccc3c2C[C@H]1C(=O)N1CCN(C)CC1	human cyclin E1 N112C-3xFLAG:CDK2	co-IP with TMT proteomics, refers to: KPNA2	–	concentration not given, P52292	baseline: wild type DMSO	relative co-enrichment	107%
Nc1ncc(-c2cc(-c3cnn(CC(F)(F)F)c3)ncc2F)nc1C(=O)NC1CNCC(F)C1 (stereo not drawn)	TLK1	KINOMEscan	–	1 µM	baseline: DMSO control	remaining binding	56%
O=C(N/N=C/c1ccc(C[n+]2ccccc2)cc1)c1cccc(C(=O)N/N=C/c2ccc(C[n+]3ccccc3)cc2)c1	22CTA telomeric G4-DNA antiparallel	FRET melting	–	1 µM, K10 buffer, DNA 0.2 µM, together with: ds26 10 µM	–	ΔTm	3.3 ± 0.2 °C
c1ccc(-c2n[nH]cc2-c2ccnc3ccccc23)nc1	KSP1 (Candida albicans)	kinase binding, MIB/MS competition	Candida albicans lysate	10 µM	baseline: DMSO	log2 fold change	-0.14
C[n+]1cccc2cc(/C=N/NC(=O)c3ccc4ccc(C(=O)N/N=C/c5ccc6c(ccc[n+]6C)c5)nc4n3)ccc21	22CTA telomeric G4-DNA antiparallel	FRET melting	–	1 µM, K10 buffer, DNA 0.2 µM	–	ΔTm	15.7 ± 0.1 °C
O=C(CCCCCCc1ccccc1)c1ncc(-c2ccc(CBr)cn2)o1	fatty-acid amide hydrolase (mouse)	refers to: anandamide levels	mouse, brain	i.p., dose not given	–	inhibition	> 90%
C[n+]1ccc(/C=N/NC(=O)c2cccc(C(=O)N/N=C/c3cc[n+](C)c4ccccc34)c2)c2ccccc21	22CTA telomeric G4-DNA antiparallel	FRET melting	–	1 µM, K10 buffer, DNA 0.2 µM	–	ΔTm	8.3 ± 0.5 °C
CN1CCC(c2ccc(-c3ccc([C@H]4[C@@H](F)[C@@H](F)C[C@@H](F)[C@H]4F)cc3)cn2)CC1	–	liver microsome stability	rat liver microsomes	1 µM	–	hepatic clearance	45 mL/min/kg

Repeated from above:
Structure (SMILES)	tested on	test	test system	conditions	how to read	quantity	value
C[n+]1ccc(/C=N/NC(=O)c2cc(C(=O)N/N=C/c3cc[n+](C)cc3)ncn2)cc1	22CTA telomeric G4-DNA antiparallel	FRET melting	–	1 µM, K10 buffer, DNA 0.2 µM	–	ΔTm	2.1 ± 1.5 °C
C=CC(=O)Nc1cccc(Cn2ncc3cnc(Nc4cnn(CCOC)c4)nc32)c1	SYK human	binding, KINOMEscan	–	100 nM	lower = stronger binding	percent of control	100%
C[n+]1cccc2cc(/C=N/NC(=O)c3cccc(C(=O)N/N=C/c4ccc5c(ccc[n+]5C)c4)c3)ccc21	22CTA telomeric G4-DNA antiparallel	FRET melting	–	1 µM, K10 buffer, DNA 0.2 µM, together with: ds26 10 µM	–	ΔTm	5.2 ± 0.3 °C
